Literature values as cited in several papers.
Protocols differ between the studies behind these lines. Numbers after ± are the reported error.

| Molecule | organism | test | test system | conditions | IC50 [µM] |
| --- | --- | --- | --- | --- | --- |
| C#CCCCC[C@@H](C)C(=O)N(C)[C@H](C(=O)N(C)[C@H](C(=O)N[C@H](C(=O)N(C)[C@@H](C)C(=O)N(C)[C@@H](Cc1ccccc1)C(N)=O)C(C)C)C(C)C)C(C)C | Leishmania donovani |  |  |  | 2.4 |
| O=c1[nH]c2c([N+](=O)[O-])cccc2cc1Br | Trypanosoma brucei brucei |  | nitroreductase overexpressing | trypomastigotes | 3.9 ± 0.1 |
| FC(F)(F)c1cccc(CNC2CCN(CCc3ccccc3)CC2)c1 | Trypanosoma cruzi |  | Tulahuen C4 LacZ |  | 15.7 |
| oxadiargyl | Toxoplasma gondii | intracellular growth | wild type, Nluc reporter |  | 20.7 ± 2.4 |
| CCOc1ccc(/C=C/c2nc(=O)c3ccccc3o2)cc1 | Trypanosoma cruzi |  | Tulahuen C4 LacZ |  | 17.8 |
| CC(=O)CCCC[C@@H](C)C(=O)N(C)[C@H](C(=O)N(C)[C@H](C(=O)N[C@H](C(=O)N(C)[C@@H](C)C(=O)N(C)[C@@H](Cc1ccccc1)C(N)=O)C(C)C)C(C)C)C(C)C | Leishmania donovani |  |  |  | > 13.5 |
| CCCCCCCCC[C@@]1(CO)CC[C@@H](C)C(=O)O1 | Chromobacterium violaceum | violacein production |  | quorum sensing | 110 |
| C#CCCCCC(=O)N(C)[C@H](C(=O)N(C)[C@H](C(=O)N(C)[C@H](C(=O)N(C)[C@@H](C)C(=O)N(C)[C@@H](Cc1ccccc1)C(=O)O)C(C)C)C(C)C)C(C)C | Leishmania donovani |  |  |  | 5.6 |
| C=C(C)[C@H]1Cc2c(ccc3c2O[C@@H]2COc4cc(OC)c(OC)cc4[C@@H]2C3=O)O1 | Plasmodium falciparum | parasite growth | 3D7 |  | 27 |
| Clc1cc(Br)ccc1-c1ccc(CNCC2CCNCC2)o1 | Trypanosoma cruzi |  | Tulahuen C4 LacZ |  | 1 |
| C[N+]1=C2C=C(NCCc3ccc(O)cc3)C(=O)c3[nH]cc(c32)CC1 | Plasmodium falciparum | parasite growth | 3D7, chloroquine-sensitive |  | < 0.05 |
| C#CCCCCCC(=O)N(C)[C@H](C(=O)N(C)[C@H](C(=O)N(C)[C@H](C(=O)N(C)[C@@H](C)C(=O)N(C)[C@@H](Cc1ccccc1)C(=O)O)C(C)C)C(C)C)C(C)C | Leishmania donovani |  |  |  | > 14 |

For quick reference, copied from above:
| Molecule | organism | test | test system | conditions | IC50 [µM] |
| --- | --- | --- | --- | --- | --- |
| O=c1[nH]c2c([N+](=O)[O-])cccc2cc1Br | Trypanosoma brucei brucei |  | nitroreductase overexpressing | trypomastigotes | 3.9 ± 0.1 |
